Experimental data pooled from the literature.
Lines come from different studies, so protocols differ. Several values in a cell are separate wells, animals, samples, runs or records. ± marks the error that the study gave.
Cell line: HCT-116

With CCn1cc(-c2cc(Cn3ccoc3=N)cc3c2CCN([C@@H](C)c2cc(OC)ccn2)C3=O)c(C(F)(F)F)n1 the EC50 was 22.3 µM (cell growth, inhibitor; 120 h).
For CC(=O)c1sc(=NN=C(C)c2c(O)c3ccccc3oc2=O)n(C)c1C, the selectivity index was greater than 4.12 (cell growth, MTT; baseline: IC50 BJ-1 over HCT-116).
O=C(Nc1nnc2[nH]c(=S)[nH]c(-c3ccc(Cl)cc3)c1-2)c1ccccc1 has a cell growth of 99.1% (SRB; 10 µM, NCI60 single-dose screen, colon cancer; baseline: untreated).
With O=C1NC(=NCc2cccs2)S/C1=C\c1ccc2ncccc2c1 the IC50 was 3.2 µM (MTS; colon cancer).
For COc1cccc2c1C(=O)c1c(O)c3c(c(O)c1C2=O)C[C@@](O)(C(=O)CO)C[C@@H]3O[C@H]1C[C@H](N)[C@H](O)[C@H](C)O1, “cell cycle phase %G0-G1” read 44.1% (flow cytometry; IC50, 24 h).
The selectivity index of CNC(=S)NN=C(C)c1c(O)c2ccccc2oc1=O is reported as greater than 13.9 (cell growth, MTT; baseline: IC50 BJ-1 over HCT-116).
The growth percentage of Cc1cc(=O)[nH]c(=O)n1Cc1cn(-c2cc3ccccc3oc2=O)nn1 is reported as 98.4% (NCI60 single-dose screen; 10 µM).
With CCOc1ccc(-c2nc3cc(-c4nc5cc(N6CCN(C)CC6)ccc5[nH]4)ccc3[nH]2)cc1OCC the growth percent was -3.06% (SRB; 10 µM, 48 h).
The cell confluence of NC(=O)NOCCCCCCCCCCCCCCCCCCCC[P+](c1ccccc1)(c1ccccc1)c1ccccc1.O=C([O-])C(F)(F)F is reported as 88.8 ± 1.62% (cell growth, live-cell imaging; 0.1 µM, control at 90% confluence).
With CCCCN1CCN(c2ccc3nc(-c4ccc5nc(-c6cc(OC)ccc6OC)[nH]c5c4)[nH]c3c2)CC1 the growth percent was 97% (SRB; 10 µM, 48 h).
COc1nc(NCc2cn(-c3ccc(C(=O)Nc4ccccc4)cc3)nn2)nc(OC)n1: “VEGF protein level” 0.78 and 0.783 (sandwich ELISA; culture supernatant; IC50, 72 h, unit not given; baseline: untreated).
NC(=O)NOCCCCCCCCCCCCCC[P+](c1ccccc1)(c1ccccc1)c1ccccc1.O=C([O-])C(F)(F)F has a cell confluence of 89.4% (cell growth, live-cell imaging; 0.1 µM, control at 90% confluence).
For O=C(Nc1nnc2n3c(Cc4ccccc4)n[nH]c3nc(-c3ccc(Cl)cc3)c1-2)c1ccccc1, the cell growth was 94.8% (SRB; 10 µM, NCI60 single-dose screen, colon cancer; baseline: untreated).
The growth percentage of O=C1NC(c2ccccc2)(c2ccccc2)C(=O)N1Cc1cn(-c2c3ccccc3nc3ccccc23)nn1 is reported as 68.1% (NCI60 single-dose screen; 10 µM).
Cn1cncc1C1=CN(c2ncnc3[nH]cnc23)CCS1 gave a GI50 of 10 µM (colon cancer).
The cell confluence of NC(=O)NOCCCCCCCCCCCC[P+](c1ccccc1)(c1ccccc1)c1ccccc1.O=C([O-])C(F)(F)F is reported as 8.66 ± 1.48% (cell growth, live-cell imaging; 3 µM, control at 90% confluence).
Under “reduction of cell number”, O=P1(C2CCCCC2)CCCCC1 is recorded as 29% (trypan blue; IC50, 72 h; baseline: untreated).
O=[N+]([O-])c1cc(I)c(O)c(C=NNc2ccccc2)c1: “cells in S phase” 12.5% (Muse cell cycle; IC50, 24 h).
For Cn1cnc2c(F)c(Nc3ccc(Br)cc3F)c(C(=O)NOCCO)cc21, the viability was 97.5% (0.03906 µM, 72 h).
NC(=O)NOCCCCCCCCCCCCCCCC[P+](c1ccccc1)(c1ccccc1)c1ccccc1.O=C([O-])C(F)(F)F has a cell confluence of 4% (cell growth, live-cell imaging; 5 µM, control at 90% confluence).
For O=C(NOC[C@H](O)CO)c1ccc(F)c(F)c1Nc1ccc(I)cc1F, the viability was 32% (0.625 µM, 72 h).
NC(=O)NO has a cell confluence of 3.43 ± 0.9% (cell growth, live-cell imaging; 3000 µM, control at 90% confluence).
O=C(Nc1nnc2n3c(nc(-c4ccc(Cl)cc4)c1-2)SCC3=O)c1ccccc1 gave a cell growth of 98.8% (SRB; 10 µM, NCI60 single-dose screen, colon cancer; baseline: untreated).
With NC(=O)NOCCCCCCCCCC[P+](c1ccccc1)(c1ccccc1)c1ccccc1.O=C([O-])C(F)(F)F the cell confluence was 82.1% (cell growth, live-cell imaging; 0.1 µM, control at 90% confluence).
With CC(=O)c1sc(=NN=C(C)c2c(O)c3ccccc3oc2=O)[nH]c1C the selectivity index was greater than 3.18 (cell growth, MTT; baseline: IC50 BJ-1 over HCT-116).
For COc1nc(NCc2cn(-c3ccc(C(=O)Nc4ccc(C(F)(F)F)cc4)cc3)nn2)nc(OC)n1, “cell cycle phase %G2-M” read 10.2% (flow cytometry; IC50, 24 h).
O=[N+]([O-])c1cc(Br)c(O)c(C=NNc2ccc(C(F)(F)F)cc2)c1: “late apoptotic or dead cells” 86% (annexin V; IC50).
CS(=O)(=O)c1ccc2nc(-c3ccccc3)c(Nc3ccc(C(=O)O)cc3)n2c1 gave a synergy score of 9.5 (cell viability; 72 h, together with: camptothecin; direction not given).
COc1ccc(OC)c(-c2nc3ccc(-c4nc5ccc(N6CCN(C)CC6)cc5[nH]4)cc3[nH]2)c1 gave a growth percent of 82.1% (SRB; 10 µM, 48 h).
COc1cc(NCC(=O)Nn2c(C)nc3ccc(Cl)cc3c2=O)cc(OC)c1OC has an IC50 of 573 ± 8.17 µM (cytotoxicity, LDH release; 24 h, 50% viability reduction).

Repeated from above:
The growth percentage of O=C1NC(c2ccccc2)(c2ccccc2)C(=O)N1Cc1cn(-c2c3ccccc3nc3ccccc23)nn1 is reported as 68.1% (NCI60 single-dose screen; 10 µM).
With O=C1NC(=NCc2cccs2)S/C1=C\c1ccc2ncccc2c1 the IC50 was 3.2 µM (MTS; colon cancer).
For COc1nc(NCc2cn(-c3ccc(C(=O)Nc4ccc(C(F)(F)F)cc4)cc3)nn2)nc(OC)n1, “cell cycle phase %G2-M” read 10.2% (flow cytometry; IC50, 24 h).
